Results of several laboratories.
Compare with care: the assays were run in different laboratories. ± gives the spread as reported. The star is where a group is joined.
ESR1: Estrogen receptor (ESR1, Homo sapiens, UniProt P03372)

Molecule | tested on | assay | test system | conditions | how to read | quantity | value
CC(CCCCCC(F)(F)F)CC1=C(O)C(=O)c2ccccc2C1=O (centres unmarked) | COB/RIP1, center P (Saccharomyces cerevisiae, UniProt P00163+P08067) | center P first turnover | – | concentration not given, preincubated with oxidized enzyme, added: quinol | – | cytochrome b reduction | no inhibition
Ac-LDEVD-pNA (N-acetyl, C-pNA; pNA = O=[N+]([O-])c1ccc(N*)cc1) | Caspase-6 (CASP6, Homo sapiens, UniProt P55212) | substrate, colorimetric p-nitroanilide release | – | pH 7.25 | – | kcat | 0.5 ± 0.05 s⁻¹
CCCCCc1cc(O)c(C/C=C(\C)CCC=C(C)C)c(O)c1 | Sodium channel protein type 9 subunit alpha (SCN9A, Homo sapiens, UniProt Q15858) | steady-state inactivation shift, automated patch clamp | – | – | reference: vehicle | lowest effective concentration | 15 µM
Oc1ccccc1-c1c(Cl)cc(Cl)cc1Cl | Aequorin-1 (Aequorea victoria, UniProt P07164, C152S/C159S/C187S) | aequorin bioluminescence, inhibitor | – | 2 h, added: coelenterazine | – | detection limit | 34 µM
IGGEGHNLQEHSVILIRGG | Kelch domain-containing protein 2 (UniProt Q9Y2U9) | native mass spectrometry | peptide, 200 mM ammonium acetate | 20 µM Kelch domain-containing protein 2, pH 7 | reference: total Kelch domain-containing protein 2 signal | fraction of protein bound | 0.5%
CC(C)[C@H](NC(=O)C[C@H](NC(=O)CCCCCCCCCCn1cc(CCCCOCCOCCOCCOCCOCCOCCOc2ccc(Br)c(-c3cc4cnc(N)nc4nc3N)c2Br)nn1)c1ccccc1)C(=O)[C@@H]1C(=O)NC(=O)[C@H]1C | accD/accA/accC (Escherichia coli, UniProt P0A9Q5+P0ABD5+P24182) | competition LC-MS/MS | – | added: competitors 50 µM | – | residence time | 3.3 min
CN1CCN(c2ccc(C(=O)Nc3cc(-c4nc5ccccc5[nH]4)n[nH]3)cc2)CC1 | Forkhead box protein O1 (FOXO1, Homo sapiens, UniProt Q12778) | reporter gene | HEK293 | – | reference: FOXO3, FOXO4, FOXA2 over FOXO1 | selectivity ratio | > 200 fold
Oc1ccc(-c2c[se]cc2-c2ccc(O)cc2)cc1 | ESR1 | antagonist | HEK293T | highest tested concentration, added: estradiol 10 nM | reference: estradiol alone | efficacy | 57 ± 2%
O=c1[nH]c(/C=C/c2ccc([N+](=O)[O-])c(O)c2)c([N+](=O)[O-])c(=O)[nH]1 | Riboflavin synthase (ribC, Escherichia coli, UniProt P0AFU8) | enzyme activity, substrate | Escherichia coli, recombinant riboflavin synthase | pH 7.0 | – | Ks | 3 ± 0.1 µM
RYRHPTPMYY | Serine/threonine-protein kinase pim-1 (PIM1, Homo sapiens, UniProt P11309) | substrate, coupled enzyme | peptide | pH 7.4, room temperature, added: 1 mM ATP, 20 mM MgCl2 | – | kcat | 2.9 ± 0.1 s⁻¹
Cc1cc(-c2cc(-c3cc(C)c(O)c(C)c3)c(-c3cc(C)c(O)c(C)c3)[se]2)cc(C)c1O | ESR1 | antagonist | HEK293T | highest tested concentration, added: estradiol 10 nM | reference: estradiol alone | efficacy | 27 ± 1%
O=Cc1ccc(CO)o1 | Hemoglobin subunit alpha, with beta chain (HBA1, Homo sapiens, UniProt P69905) | kinetic binding, cation-exchange HPLC | – | 37 °C | – | koff | 3.61e-05 s⁻¹
CC(=O)CC(c1ccccc1)c1c(O)c2cccc(O)c2oc1=O (centres unmarked) | UDP-glucuronosyltransferase 1A9 (UGT1A9, Homo sapiens, UniProt O60656) | substrate | – | pH 7.4, 37 °C | – | Vmax | 9230 pmol/mg/min
COc1cccc(Oc2ccc(C(=O)N[C@H](CN3CCN(c4cccc(O)c4)[C@@H](C)C3)C(C)C)cc2)c1 | Kappa-type opioid receptor (OPRK1, Homo sapiens, UniProt P41145) | antagonist | CHO | added: U69593 | – | Ke | 0.63 ± 0.13 nM
CC[C@H](C)[C@H](NC(=O)[C@@H]1CSSC[C@@H]2NC(=O)[C@H]([C@@H](C)O)NC(=O)[C@H](C(C)C)NC(=O)CNC(=O)[C@H](CC(N)=O)NC(=O)[C@@H](NC(=O)[C@@H]3CCCN3C(=O)[C@H](CC(N)=O)NC(=O)[C@H](CC(N)=O)NC(=O)[C@@H](N)CC(C)C)CSSC[C@H](NC(=O)[C@H](CCCNC(=N)N)NC(=O)[C@H](Cc3ccc(O)cc3)NC(=O)CNC(=O)[C@H](CO)NC(=O)[C@@H]3CCCN3C2=O)C(=O)N[C@@H](CO)C(=O)N[C@@H]([C@@H](C)CC)C(=O)N[C@@H](C(C)C)C(=O)N[C@@H](CC(=O)O)C(=O)N[C@@H](CCCCN)C(=O)N[C@@H](CCC(N)=O)C(=O)N1)C(=O)N[C@@H](CCCCN)C(=O)N[C@@H](CCCCN)C(=O)N[C@@H](CCC(=O)O)C(=O)O | Transient receptor potential cation channel subfamily V member 1 (Trpv1, Mus musculus, UniProt Q704Y3, E571A) | ion current, activator, whole-cell patch clamp | HEK293T | pH 7.2, 22 °C | – | Hill coefficient | 1.02 ± 0.06
NC(=O)N1CCC[C@H](NC(=O)c2nn(Cc3ccc(F)cc3)c3ccccc23)C1 | Cannabinoid receptor 2 (CNR2, Homo sapiens, UniProt P34972) | calcium mobilization, agonist | CHO-K1 expressing Gαq16 | – | reference: CP55,940 maximum | Emax | 74 ± 6%
CN[C@@](C)(C[18F])C(=O)O | A549 tumour model | – | host not given, blood | 2 h, tumour-bearing | – | tracer uptake | 0.7 %ID/g

Repeated from above:
Molecule | tested on | assay | test system | conditions | how to read | quantity | value
Cc1cc(-c2cc(-c3cc(C)c(O)c(C)c3)c(-c3cc(C)c(O)c(C)c3)[se]2)cc(C)c1O | ESR1 | antagonist | HEK293T | highest tested concentration, added: estradiol 10 nM | reference: estradiol alone | efficacy | 27 ± 1%
